Measured values collected from several papers.
Protocols differ between the studies behind these lines. ± marks the error that the study gave. Values after ≈ are worked out from the molar mass of the structure shown.

With CC(C)CC(O)(CC(C)C)c1cn(C(=O)N2CCCC2)nn1 the protein level was 1.08 ± 0.07 (mouse T-cells; SILAC proteomics, measured: ARHGEF2; 1 nM, 6 h, unit not given; relative to: DMSO).
With C=CCCCCCCCCCOCc1cn(CC2=CC[C@@H]3C(C(=O)OC)=CO[C@@H](OC(C)=O)[C@H]23)nn1 the viability was 57.1 ± 0.3% (SK-N-SH; neuroprotection, MTT; 0.075 µM, 24 h, with: 250 µM H2O2).
With COCO[C@H]1[C@H](O)[C@@H](N)[C@@H](O[C@H]2[C@H](O[C@@H]3O[C@H](CO)[C@@H](O[C@H]4O[C@@H](CN)[C@@H](O)[C@H](O)[C@H]4N)[C@H]3O)[C@@H](O)[C@H](N)C[C@@H]2N)O[C@@H]1CO the IC50 was 46.9 ± 4.07 µg/mL (ribosome with mitochondrial A1555G A site; luciferase translation, cell-free translation).
With N=C(N)NCCC[C@@H]1NC(=O)[C@H](CCCCNC(=O)CC[C@H](NC(=O)CCOCCOCCOCCOCCNC(=O)CC[C@H](NC(=O)CN2CCN(CC(=O)O)CCN(CC(=O)O)CCN(CC(=O)O)CC2)C(=O)NCCOCCOCCOCCOCCC(=O)N[C@@H](CCC(=O)NCCCC[C@@H]2NC(=O)[C@@H](Cc3ccccc3)NC(=O)[C@H](CC(=O)O)NC(=O)CNC(=O)[C@H](CCCNC(=N)N)NC2=O)C(=O)NCCCC[C@@H]2NC(=O)[C@@H](Cc3ccccc3)NC(=O)[C@H](CC(=O)O)NC(=O)CNC(=O)[C@H](CCCNC(=N)N)NC2=O)C(=O)NCCCC[C@@H]2NC(=O)[C@@H](Cc3ccccc3)NC(=O)[C@H](CC(=O)O)NC(=O)CNC(=O)[C@H](CCCNC(=N)N)NC2=O)NC(=O)[C@@H](Cc2ccccc2)NC(=O)[C@H](CC(=O)O)NC(=O)CNC1=O [indium-111 labelled] the tissue uptake was 0.87 ± 0.24 %ID/g (female athymic nude mice, eyes; intravenous, 3 µCi, 0.5 h, U-87 MG glioma xenograft).
For CN[C@@H]1[C@H](O)[C@H](NC)[C@H]2O[C@]3(O)[C@H](O[C@@H]2[C@H]1O)O[C@H](C)C[C@H]3NC(=O)Cc1ccc(O)cn1, the IC50 was 1.51 ± 0.44 µM (Mycolicibacterium smegmatis ribosome; cell-free translation).
CC[C@H](C)[C@H](NC(=O)CNC(=O)CNC(=O)[C@@H](NC(=O)[C@@H](N)CCCNC(=N)N)[C@@H](C)CC)C(=O)N[C@@H](CC(C)C)C(=O)N[C@@H](CCCCN)C(=O)N[C@H](C(=O)N[C@@H](CC(C)C)C(=O)N[C@@H](CCCCN)C(=O)N[C@@H](CCCCN)C(=O)N[C@H](C(=O)N[C@@H](CC(C)C)C(=O)N1CCC[C@H]1C(=O)N[C@@H](CCCCN)C(=O)N[C@@H](C)C(=O)N[C@H](C(=O)N[C@@H](CCCCN)C(=O)N[C@@H](C)C(=O)N[C@@H](C)C(=O)N[C@@H](C)C(=O)N[C@@H](CCC(=O)O)C(=O)N[C@@H](CCSC)C(=O)N[C@@H](C)C(=O)N1CCC[C@H]1C(=O)N1CCC[C@H]1C(=O)N[C@@H](CCC(N)=O)C(=O)N[C@@H](CC(N)=O)C(=O)N[C@@H](CCC(=O)O)C(=O)O)[C@@H](C)CC)C(C)C)[C@@H](C)CC: “duration of mechanical hypersensitivity” over 60 min (electronic von Frey; male C57BL/6J mice, ipsilateral paw; intraplantar, 10 µL of 1.2 mM).
CCCCCCCCC(=O)NCc1ccc(O)c(OC)c1 gave an IC50 of 0.00437 µg/mL (mAb 4-AT4; antibody binding, indirect competitive ELISA; with: coating antigen hapten 4-OVA).
With CC[C@H](C)[C@@H]1NC(=O)[C@H](CCCCN)NC(=O)[C@H](CCCCN)NC(=O)[C@H](C)NC(=O)[C@H](C(C)C)NC(=O)[C@H](C)NC(=O)[C@H](CC(C)C)NC(=O)[C@H](CC(C)C)NC(=O)[C@H](C)NC(=O)[C@H](CCCCN)NC(=O)[C@H](CC(C)C)NC(=O)[C@H](CC(N)=O)NC(=O)[C@H](CC(C)C)NC(=O)[C@@H](N)CSSC[C@@H](C(N)=O)NC(=O)[C@H](CC(C)C)NC1=O the IC50 was 7.02 µM (H157; MTT; 24 h).
With CCCC[C@H](NC(=O)CCCCCCCNC(=O)c1ccc(NN)nc1)C(=O)N[C@H]1CC(=O)NCCCC[C@@H](C(N)=O)NC(=O)[C@H](Cc2c[nH]c3ccccc23)NC(=O)[C@H](CCCNC(=N)N)NC(=O)[C@@H](Cc2ccccc2)NC(=O)[C@H](Cc2c[nH]cn2)NC1=O [technetium-99m labelled] the uptake was 7.13 ± 0.99 %ID/g (C57 mouse, B16/F1 melanoma, tumor; intravenous, 24 h).
NC1=NN=Cc2ccccc2[O][V](=[O])[O]1.c1cnc2c(c1)ccc1cccnc12 gave an IC50 of 5.12 ± 0.78 µM (Mycobacterium tuberculosis PtpB; enzyme activity, inhibitor).
With CC[C@H](C)[C@H](NC(=O)[C@H](Cc1ccccc1)NC(=O)[C@H](CCC(=O)O)NC(=O)[C@H](CCCCNC(=O)COCC(=O)NCCCOCCOCCOCCCNC(=O)CNC(=O)[C@@H]1CCCN1C(=O)CNC(=O)[C@@H]1CCCN1C(=O)CNC(=O)[C@@H]1CCCN1C(=O)[C@H](CCCCNC(=O)CN(CCN(CCN(CC(=O)O)CC(=O)O)CC(=O)O)CC(=O)O)NC(=O)COCC(=O)NCCCOCCOCCOCCCNC(=O)COCC(=O)NCCOc1ccc(Cl)cc1C(=O)NCCc1ccc(S(=O)(=O)NC(=O)NC2CCCCC2)cc1)NC(=O)[C@H](C)NC(=O)[C@H](C)NC(=O)[C@H](CCC(N)=O)NC(=O)CNC(=O)[C@H](CCC(=O)O)NC(=O)[C@H](CC(C)C)NC(=O)[C@H](Cc1ccc(O)cc1)NC(=O)[C@H](CO)NC(=O)[C@H](CO)NC(=O)[C@@H](NC(=O)[C@H](CC(=O)O)NC(=O)[C@H](CO)NC(=O)[C@@H](NC(=O)[C@H](Cc1ccccc1)NC(=O)[C@@H](NC(=O)CNC(=O)[C@H](CCC(=O)O)NC(=O)[C@H](C)NC(=O)[C@@H](N)Cc1c[nH]cn1)[C@@H](C)O)[C@@H](C)O)C(C)C)C(=O)N[C@@H](C)C(=O)N[C@@H](Cc1c[nH]c2ccccc12)C(=O)N[C@@H](CC(C)C)C(=O)N[C@H](C(=O)N[C@@H](CCCNC(=N)N)C(=O)NCC(=O)N[C@@H](CCCNC(=N)N)C(=O)NCC(N)=O)C(C)C the Kd was 0.0505 µM (GLP-1R and SUR1; Eu-ligand saturation binding; βTC3; 1 h, 37 °C).
With COC(=O)C1=CO[C@@H](OC(C)=O)[C@@H]2C(Cn3cc(COCc4ccc(OC)c(OC)c4)nn3)=CC[C@H]12 the viability was 59 ± 0.21% (SK-N-SH; neuroprotection, MTT; 0.6 µM, 24 h, with: 250 µM H2O2).
With CCCC[C@H](NC(=O)CNC(=O)CNC(=O)c1ccc(NN)nc1)C(=O)N[C@H]1CC(=O)NCCCC[C@@H](C(N)=O)NC(=O)[C@H](Cc2c[nH]c3ccccc23)NC(=O)[C@H](CCCNC(=N)N)NC(=O)[C@@H](Cc2ccccc2)NC(=O)[C@H](Cc2c[nH]cn2)NC1=O [technetium-99m labelled] the tissue uptake was 0.06 ± 0.03 %ID/g (C57 mouse, B16/F1 melanoma-bearing, stomach; intravenous, 24 h).
COC(=O)C1=CO[C@@H](O)[C@@H]2C(Cn3cc(-c4ccc(OC)cc4)nn3)=CC[C@H]12 has a viability of 78.6 ± 1.9% (SK-N-SH; neuroprotection, MTT; 0.6 µM, 24 h, with: 250 µM H2O2).
With N=C(N)NCCC[C@@H]1NC(=O)[C@H](CCCCNC(=O)CCOCCOCCOCCOCCNC(=O)CC[C@H](NC(=O)CCOCCOCCOCCOCCNC(=O)CC[C@H](NC(=O)CN2CCN(CC(=O)O)CCN(CC(=O)O)CCN(CC(=O)O)CC2)C(=O)NCCOCCOCCOCCOCCC(=O)N[C@@H](CCC(=O)NCCOCCOCCOCCOCCC(=O)NCCCC[C@@H]2NC(=O)[C@@H](Cc3ccccc3)NC(=O)[C@H](CC(=O)O)NC(=O)CNC(=O)[C@H](CCCNC(=N)N)NC2=O)C(=O)NCCOCCOCCOCCOCCC(=O)NCCCC[C@@H]2NC(=O)[C@@H](Cc3ccccc3)NC(=O)[C@H](CC(=O)O)NC(=O)CNC(=O)[C@H](CCCNC(=N)N)NC2=O)C(=O)NCCOCCOCCOCCOCCC(=O)NCCCC[C@@H]2NC(=O)[C@@H](Cc3ccccc3)NC(=O)[C@H](CC(=O)O)NC(=O)CNC(=O)[C@H](CCCNC(=N)N)NC2=O)NC(=O)[C@@H](Cc2ccccc2)NC(=O)[C@H](CC(=O)O)NC(=O)CNC1=O [indium-111 labelled] the tissue uptake was 2.18 ± 0.26 %ID/g (female athymic nude mice, lungs; intravenous, 3 µCi, 4 h, U-87 MG glioma xenograft).
With COC(=O)C1=CO[C@@H](OC(C)=O)[C@@H]2C(Cn3cc(CCN4C(=O)c5ccccc5C4=O)nn3)=CC[C@H]12 the viability was 54.9 ± 2.7% (SK-N-SH; neuroprotection, MTT; 0.15 µM, 24 h, with: 250 µM H2O2).
CSC(=NNC(=O)c1ccc([N+](=O)[O-])cc1)SC has an MIC of 6.2 µg/mL (≈ 21.7 µM) (Mycobacterium; Wells).
